Measured values from different studies.
Every numbered part comes from another study and shows a few of its results, in no order.

Series 1 — technique: protein-binding microarray; molecule type: double-stranded DNA, one strand shown; matrix: in vitro; concentration: 250 nM; setting: 60-bp whole probe; with: salmon DNA 0.4 mg/ml; reference: random background probes; reading: higher = stronger binding; constant ends, left off below: GCCTAGCAC … GTCTTGATTCGCTTGACGCTGCTG
Target: Interferon regulatory factor 5, full length, phosphomimetic (IRF5, Homo sapiens, UniProt Q13568-2, residues 1-514, K96S/S451D/S453D/S456D/S462D)
`GACGGACTGGACTATCGGGAAGTGCTA` has a log fluorescence of 0.973 z-score.
`TTAGAATTCAGTTCCGATTAGTGCTAG` gave a log fluorescence of 1.23 z-score.
`GACGGTCACGGTTTCGGGACGTGCTAG` has a log fluorescence of 1.84 z-score.
With `AATATGTTCCCTATATAAGGGTGCTAG` the log fluorescence was 0.306 z-score.
`TTCTACTTCTGTTTTTGCTTGTGCTAG` gave a log fluorescence of 1.52 z-score.
With `TCAGATATAGGATAACGAACTGTGCTA` the log fluorescence was 0.421 z-score.
The log fluorescence of `TACATTTTCCAAATGCCCCTGTGCTAG` is reported as 0.345 z-score.

Series 2 — technique: universal PBM; molecule type: double-stranded DNA, one strand shown; matrix: in vitro; concentration: not given; reading: higher = stronger binding
Target: Sal-like protein 4, full length isoform B (SALL4, Homo sapiens, UniProt Q9UJQ4-2, residues 1-616)
Setting: 8-mer, flanks averaged, mean of replicates
Residues (chain): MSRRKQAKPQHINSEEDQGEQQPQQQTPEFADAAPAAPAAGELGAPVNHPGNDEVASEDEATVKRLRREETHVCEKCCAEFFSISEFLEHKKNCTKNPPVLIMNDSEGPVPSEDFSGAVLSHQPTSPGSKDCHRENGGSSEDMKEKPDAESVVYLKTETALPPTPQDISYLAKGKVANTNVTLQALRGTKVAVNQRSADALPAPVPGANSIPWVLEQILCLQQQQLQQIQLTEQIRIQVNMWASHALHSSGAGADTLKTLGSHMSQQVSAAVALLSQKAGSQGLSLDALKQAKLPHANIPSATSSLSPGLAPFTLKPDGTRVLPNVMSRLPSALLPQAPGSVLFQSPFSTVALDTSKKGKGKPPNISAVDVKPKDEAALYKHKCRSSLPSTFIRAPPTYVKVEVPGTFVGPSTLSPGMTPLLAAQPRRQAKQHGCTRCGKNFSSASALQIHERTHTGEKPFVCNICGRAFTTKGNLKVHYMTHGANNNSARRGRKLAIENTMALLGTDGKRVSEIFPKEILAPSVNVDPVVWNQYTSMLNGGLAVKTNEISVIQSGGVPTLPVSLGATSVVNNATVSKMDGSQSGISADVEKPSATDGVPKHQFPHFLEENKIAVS
With `GGTCTGAC` the E-score was -0.187.
The E-score of `CCGGGGAA` is reported as -0.279.
The E-score of `ATGCACAT` is reported as 0.175.
`ACGCGTCG` gave an E-score of -0.0758.
With `ACACAGCG` the E-score was -0.0356.
With `ACTTCGCT` the E-score was -0.0556.
`AACGCTCA` gave an E-score of -0.143.
The E-score of `CGAGCCCG` is reported as -0.235.
`ACGCTTTC` gave an E-score of -0.0778.

Series 3 — technique: protein binding microarray; molecule type: double-stranded DNA, one strand shown; matrix: in vitro; concentration: not given; reference: not given; reading: higher = stronger binding
Target: Histone acetyltransferase KAT6A, winged helix 2, GST fusion (KAT6A, Homo sapiens, UniProt Q92794, residues 85-181)
Setting: 8-mer, flanks averaged, mean of 2 arrays, mostly near background
Residues (chain): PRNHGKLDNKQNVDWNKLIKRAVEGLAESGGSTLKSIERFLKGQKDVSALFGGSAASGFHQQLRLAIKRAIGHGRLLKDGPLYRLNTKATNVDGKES
`AACTCGGA` gave an E-score of 0.0444.
`ACAGCTCG` has an E-score of 0.0941.
For `AGGAAAAC`, the E-score was -0.006.
For `CGACGCAC`, the E-score was 0.125.
`GCTAGTAC` gave an E-score of 0.0471.
`AGCGCATG` gave an E-score of -0.0441.
The E-score of `CCGCCAGG` is reported as 0.0116.
For `ACAACAAG`, the E-score was -0.0821.
The E-score of `TTCTCCAA` is reported as 0.169.
With `AAATAGCA` the E-score was 0.0959.
For `CAGGTTCC`, the E-score was -0.0985.
The E-score of `CCATAAGG` is reported as -0.111.

Mixed results
For `PhoQ, residues 284 288 289 292 302 303 SSTMSV`, the fold induction was 14.9 (PhoP, residues 12 14 15 18 19 NMSSL (Escherichia coli, UniProt P23836); Sort-seq, measured: YFP reporter; E. coli; PhoQ-PhoP variant library, with: 10 µM Mg2+; reference: high Mg2+ state, higher = stronger signaling).
